Measured values pooled from the literature.
Compare with care: the assays were run in different laboratories. Numbers after ± are the reported error.
Spike glycoprotein Beta variant: Spike glycoprotein, Beta variant (Severe acute respiratory syndrome coronavirus 2, UniProt P0DTC2)

The chains behind the UniProt entries cited, without tags or fusion partners. Where a name states a change or a piece, a line headed by the entry shows the natural chain unless it says otherwise.
UniProt P30926, whole entry, looked up: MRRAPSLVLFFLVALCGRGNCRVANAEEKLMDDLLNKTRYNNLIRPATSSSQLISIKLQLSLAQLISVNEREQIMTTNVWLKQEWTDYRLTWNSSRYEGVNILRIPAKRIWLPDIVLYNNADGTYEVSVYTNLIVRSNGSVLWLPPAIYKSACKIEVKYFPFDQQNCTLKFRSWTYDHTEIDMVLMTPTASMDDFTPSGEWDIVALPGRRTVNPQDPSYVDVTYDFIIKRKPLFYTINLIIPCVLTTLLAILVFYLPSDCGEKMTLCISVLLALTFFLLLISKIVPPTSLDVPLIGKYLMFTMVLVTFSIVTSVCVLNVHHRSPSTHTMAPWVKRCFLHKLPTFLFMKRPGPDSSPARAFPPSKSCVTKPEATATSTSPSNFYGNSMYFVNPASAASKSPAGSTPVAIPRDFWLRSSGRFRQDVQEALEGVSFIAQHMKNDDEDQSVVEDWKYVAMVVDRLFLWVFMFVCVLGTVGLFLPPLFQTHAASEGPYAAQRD
UniProt P32297, whole entry, looked up: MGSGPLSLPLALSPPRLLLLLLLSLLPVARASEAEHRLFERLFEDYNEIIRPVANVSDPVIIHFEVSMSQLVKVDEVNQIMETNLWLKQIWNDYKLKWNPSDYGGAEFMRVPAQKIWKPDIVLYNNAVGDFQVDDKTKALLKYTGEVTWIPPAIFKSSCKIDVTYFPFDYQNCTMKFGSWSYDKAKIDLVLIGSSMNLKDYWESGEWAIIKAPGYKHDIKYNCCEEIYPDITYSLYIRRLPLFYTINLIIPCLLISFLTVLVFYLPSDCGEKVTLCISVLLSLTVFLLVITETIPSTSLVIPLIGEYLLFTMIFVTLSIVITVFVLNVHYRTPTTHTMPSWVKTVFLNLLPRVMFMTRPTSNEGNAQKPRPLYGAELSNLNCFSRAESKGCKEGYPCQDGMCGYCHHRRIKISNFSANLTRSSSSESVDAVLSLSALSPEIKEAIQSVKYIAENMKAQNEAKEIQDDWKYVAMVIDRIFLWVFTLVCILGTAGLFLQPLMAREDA
UniProt Q9GZZ6, whole entry, looked up: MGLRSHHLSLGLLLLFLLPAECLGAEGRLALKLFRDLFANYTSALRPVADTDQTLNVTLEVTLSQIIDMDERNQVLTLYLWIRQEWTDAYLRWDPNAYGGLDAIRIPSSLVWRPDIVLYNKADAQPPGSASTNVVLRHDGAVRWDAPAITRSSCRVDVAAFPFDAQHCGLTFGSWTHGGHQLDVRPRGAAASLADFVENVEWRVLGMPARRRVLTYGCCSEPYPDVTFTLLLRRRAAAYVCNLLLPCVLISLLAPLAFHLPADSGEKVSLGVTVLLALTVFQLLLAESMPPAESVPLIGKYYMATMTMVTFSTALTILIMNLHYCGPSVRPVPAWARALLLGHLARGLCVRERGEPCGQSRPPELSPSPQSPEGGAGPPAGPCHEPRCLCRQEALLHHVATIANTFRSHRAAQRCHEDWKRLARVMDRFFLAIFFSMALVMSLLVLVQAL
UniProt Q9UGM1, whole entry, looked up: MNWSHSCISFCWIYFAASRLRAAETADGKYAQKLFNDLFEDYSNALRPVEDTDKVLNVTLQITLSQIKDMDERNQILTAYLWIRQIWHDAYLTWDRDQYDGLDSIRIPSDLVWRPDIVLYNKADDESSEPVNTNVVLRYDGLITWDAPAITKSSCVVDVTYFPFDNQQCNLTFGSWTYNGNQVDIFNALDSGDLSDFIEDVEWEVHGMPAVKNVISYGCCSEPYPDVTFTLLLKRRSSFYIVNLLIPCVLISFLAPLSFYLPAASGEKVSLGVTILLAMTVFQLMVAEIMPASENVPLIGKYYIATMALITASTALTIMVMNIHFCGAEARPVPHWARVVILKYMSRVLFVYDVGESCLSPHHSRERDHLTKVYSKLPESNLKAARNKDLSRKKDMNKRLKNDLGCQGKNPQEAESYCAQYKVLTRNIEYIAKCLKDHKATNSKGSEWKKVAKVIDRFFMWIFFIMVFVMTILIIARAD
UniProt Q02294, whole entry, looked up: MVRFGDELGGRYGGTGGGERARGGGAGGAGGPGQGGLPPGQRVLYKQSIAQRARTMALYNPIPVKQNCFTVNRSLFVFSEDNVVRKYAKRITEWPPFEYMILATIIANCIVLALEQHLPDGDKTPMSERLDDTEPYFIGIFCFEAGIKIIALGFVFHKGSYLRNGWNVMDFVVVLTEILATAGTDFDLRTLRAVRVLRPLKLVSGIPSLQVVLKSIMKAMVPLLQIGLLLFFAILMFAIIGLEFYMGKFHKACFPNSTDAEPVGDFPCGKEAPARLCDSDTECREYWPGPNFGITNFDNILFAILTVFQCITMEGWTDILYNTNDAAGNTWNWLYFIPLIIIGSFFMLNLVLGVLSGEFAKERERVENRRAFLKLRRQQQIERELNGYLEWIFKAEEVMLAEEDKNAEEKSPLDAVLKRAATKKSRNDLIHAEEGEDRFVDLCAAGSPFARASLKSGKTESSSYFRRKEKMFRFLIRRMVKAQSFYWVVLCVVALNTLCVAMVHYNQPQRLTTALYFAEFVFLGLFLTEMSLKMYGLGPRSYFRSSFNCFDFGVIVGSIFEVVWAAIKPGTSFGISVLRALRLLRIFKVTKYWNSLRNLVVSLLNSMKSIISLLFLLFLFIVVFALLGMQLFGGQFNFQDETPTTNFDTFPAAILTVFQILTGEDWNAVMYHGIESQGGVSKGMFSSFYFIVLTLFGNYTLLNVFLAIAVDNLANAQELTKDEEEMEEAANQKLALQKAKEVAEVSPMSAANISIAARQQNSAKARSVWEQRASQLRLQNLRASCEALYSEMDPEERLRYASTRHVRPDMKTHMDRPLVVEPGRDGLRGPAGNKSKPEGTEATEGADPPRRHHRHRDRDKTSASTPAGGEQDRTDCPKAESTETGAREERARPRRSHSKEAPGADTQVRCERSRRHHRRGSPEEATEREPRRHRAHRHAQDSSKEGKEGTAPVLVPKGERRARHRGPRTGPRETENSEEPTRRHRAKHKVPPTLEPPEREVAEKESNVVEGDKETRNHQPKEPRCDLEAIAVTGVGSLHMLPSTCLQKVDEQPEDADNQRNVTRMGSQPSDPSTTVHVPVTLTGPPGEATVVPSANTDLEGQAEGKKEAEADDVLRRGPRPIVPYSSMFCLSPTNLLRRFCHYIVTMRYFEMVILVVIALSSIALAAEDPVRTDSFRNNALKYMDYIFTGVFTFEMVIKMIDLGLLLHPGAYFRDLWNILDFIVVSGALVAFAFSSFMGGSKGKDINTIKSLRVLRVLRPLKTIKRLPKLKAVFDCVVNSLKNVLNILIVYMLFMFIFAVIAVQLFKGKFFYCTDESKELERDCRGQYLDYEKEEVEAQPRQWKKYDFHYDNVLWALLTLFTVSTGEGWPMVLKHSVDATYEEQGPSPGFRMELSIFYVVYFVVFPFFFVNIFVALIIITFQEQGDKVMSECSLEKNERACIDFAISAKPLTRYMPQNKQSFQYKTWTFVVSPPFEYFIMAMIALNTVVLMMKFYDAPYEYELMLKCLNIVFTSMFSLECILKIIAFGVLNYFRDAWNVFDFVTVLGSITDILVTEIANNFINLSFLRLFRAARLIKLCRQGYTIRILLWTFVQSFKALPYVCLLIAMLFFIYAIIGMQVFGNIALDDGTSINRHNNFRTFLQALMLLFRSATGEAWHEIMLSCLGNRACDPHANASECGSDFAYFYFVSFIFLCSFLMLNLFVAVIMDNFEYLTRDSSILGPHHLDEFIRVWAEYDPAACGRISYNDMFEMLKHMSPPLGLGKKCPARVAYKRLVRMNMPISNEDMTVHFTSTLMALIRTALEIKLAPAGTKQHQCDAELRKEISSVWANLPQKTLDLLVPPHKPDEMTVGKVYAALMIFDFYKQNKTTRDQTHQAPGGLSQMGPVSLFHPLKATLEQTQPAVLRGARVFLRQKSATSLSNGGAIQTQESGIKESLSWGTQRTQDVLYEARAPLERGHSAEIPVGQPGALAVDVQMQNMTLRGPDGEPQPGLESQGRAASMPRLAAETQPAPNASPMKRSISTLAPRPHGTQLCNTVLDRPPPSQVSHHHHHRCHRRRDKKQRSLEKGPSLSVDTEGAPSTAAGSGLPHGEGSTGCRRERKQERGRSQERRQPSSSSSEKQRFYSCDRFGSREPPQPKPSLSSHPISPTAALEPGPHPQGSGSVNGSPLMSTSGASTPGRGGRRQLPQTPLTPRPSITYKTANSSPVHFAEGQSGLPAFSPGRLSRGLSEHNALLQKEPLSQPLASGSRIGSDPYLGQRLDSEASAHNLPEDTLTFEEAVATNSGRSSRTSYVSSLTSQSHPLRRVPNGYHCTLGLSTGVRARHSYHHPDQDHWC

`CC[C@H](C)[C@@H]1NC(=O)[C@H](CCC(=O)O)NC(=O)[C@@H]2CCCN2C(=O)[C@H](Cc2c[nH]cn2)NC(=O)[C@H](CC(=O)O)NC(=O)[C@H](C(C)C)NC(=O)[C@H](CC(N)=O)NC(=O)[C@@H]2CSSC[C@H](NC(=O)[C@H](CCC(N)=O)NC(=O)[C@@H]3CCCN3C(=O)[C@@H](N)CCCNC(=N)N)C(=O)N[C@@H](CSSC[C@@H](C(N)=O)NC1=O)C(=O)N[C@@H](CO)C(=O)N[C@@H](Cc1c[nH]cn1)C(=O)N1CCC[C@H]1C(=O)N[C@@H](C)C(=O)N2` gave an IC50 of 2.1 ± 0.2 µM (Neuronal acetylcholine receptor; alpha3/beta4 (Homo sapiens, UniProt P30926+P32297); ACh-evoked current, antagonist, two-electrode voltage clamp; Xenopus oocytes; 5 min, pH 7.4, holding potential -70 mV).
For `O=C(/C=C/c1ccc(O)cc1)/C(C(=O)Nc1ccccc1)=C(O)/C=C/c1ccc(O)cc1`, the IC50 was about 33.1 µM (Lethal factor (Bacillus anthracis, UniProt P15917); peptide cleavage, inhibitor; 100 nM enzyme, added: 3 µM substrate).
The IC50 of `c1nc(N2CCNCC2)c2sc3nc(N4CCOCC4)ccc3c2n1` is reported as 0.014 ± 0.008 µM (Beta-glucuronidase (bglR, Clostridium perfringens, UniProt Q8XP19); enzyme activity, inhibitor).
For `CC[C@H](C)[C@H](NC(=O)[C@H](C)NC(=O)[C@H](CCC(=O)O)NC(=O)[C@H](CCC(=O)O)NC(=O)[C@H](CC(C)C)NC(=O)[C@H](CCCCN)NC(=O)[C@H](CCCCN)NC(=O)[C@H](CCSC)NC(=O)[C@H](CCC(=O)O)NC(=O)[C@H](Cc1ccc(O)cc1)NC(=O)[C@H](CCC(=O)O)NC(=O)[C@H](CC(C)C)NC(=O)[C@H](CC(=O)O)NC(=O)[C@H](CC(C)C)NC(=O)[C@H](Cc1ccccc1)NC(=O)[C@@H](NC(=O)[C@@H](NC(=O)[C@H](CC(N)=O)NC(=O)[C@@H](NC(=O)[C@H](CCC(N)=O)NC(=O)[C@H](CC(=O)O)NC(=O)[C@H](CC(C)C)NC(=O)[C@@H](N)CO)[C@@H](C)CC)C(C)C)[C@@H](C)O)C(=O)N[C@@H](CCCCN)C(=O)N[C@@H](CCCCN)C(=O)N[C@@H](CC(C)C)C(=O)N[C@@H](CCC(=O)O)C(=O)N[C@@H](CCC(=O)O)C(=O)N[C@@H](CO)C(=O)N[C@@H](Cc1ccc(O)cc1)C(=O)N[C@H](C(=O)N[C@@H](CC(=O)O)C(=O)N[C@@H](CC(C)C)C(=O)N[C@@H](CCCCN)C(=O)N[C@@H](CCC(=O)O)C(=O)N[C@@H](CC(C)C)C(=O)O)[C@@H](C)CC`, the IC50 was 0.0175 µM (Spike glycoprotein (Severe acute respiratory syndrome coronavirus, UniProt P59594); cell-cell fusion, inhibitor, luciferase fusion; 293T donor, Huh-7 target; 16 h, 37 °C, dual mutations).
For `O=C(c1ccc(Cl)cc1)n1cnc2ccccc21`, the IC50 was over 100 µM (Enoyl-[acyl-carrier-protein] reductase [NADH] (Francisella tularensis subsp. tularensis, UniProt Q5NGQ3)).
For `O=C(NCc1ccc(F)cc1)C1C(=O)N(O)C(=O)c2cc(C(F)(F)F)ccc21` (stereo not shown), the IC50 was 24 ± 0.9 µM (Nucleoprotein, exonuclease domain (N, Lymphocytic choriomeningitis virus, UniProt P09992); exonuclease activity, inhibitor).
The IC50 of `C[C@@H](O)[C@@H]1NC(=O)[C@H]2NC(=O)[C@@H](NC(=O)CN)CSSC[C@H](NC(=O)[C@H](CCCNC(=N)N)NC(=O)[C@@H]3CCCN3C(=O)[C@H](CC(=O)O)NC1=O)C(=O)N[C@@H](CCCNC(=N)N)C(=O)N[C@@H](Cc1ccc(O)c(I)c1)C(=O)N[C@@H](CCC(N)=O)C(=O)N[C@H](C(=O)N[C@H](CC(=O)N[C@@H](CCCCN)C(=O)O)Cc1ccc(O)cc1)CSSC2(C)C` is reported as 0.00034 µM (Neuronal acetylcholine receptor; alpha9/alpha10 (Homo sapiens, UniProt Q9GZZ6+Q9UGM1); ion current, antagonist, two-electrode voltage clamp; Xenopus oocytes; added: 100 µM acetylcholine).
`CC[C@H](C)[C@H](NC(=O)[C@H](C)NC(=O)[C@H](CCC(=O)O)NC(=O)[C@H](CCC(=O)O)NC(=O)[C@H](CC(C)C)NC(=O)[C@H](CCCCN)NC(=O)[C@H](CCCCN)NC(=O)[C@H](CCSC)NC(=O)[C@H](CCC(=O)O)NC(=O)[C@H](Cc1ccc(O)cc1)NC(=O)[C@H](CCC(=O)O)NC(=O)[C@H](CC(C)C)NC(=O)[C@H](CC(=O)O)NC(=O)[C@H](CC(C)C)NC(=O)[C@H](Cc1ccccc1)NC(=O)[C@H](Cc1ccc(O)cc1)NC(=O)[C@@H](NC(=O)[C@H](CC(N)=O)NC(=O)[C@@H](NC(=O)[C@H](CCC(N)=O)NC(=O)[C@H](CC(=O)O)NC(=O)[C@H](CC(C)C)NC(=O)[C@@H](N)CO)[C@@H](C)CC)C(C)C)C(=O)N[C@@H](CCCCN)C(=O)N[C@@H](CCCCN)C(=O)N[C@@H](CC(C)C)C(=O)N[C@@H](CCC(=O)O)C(=O)N[C@@H](CCC(=O)O)C(=O)N[C@@H](C)C(=O)N[C@@H](Cc1ccc(O)cc1)C(=O)N[C@H](C(=O)N[C@@H](CC(=O)O)C(=O)N[C@@H](CC(C)C)C(=O)N[C@@H](CCCCN)C(=O)N[C@@H](CCC(=O)O)C(=O)N[C@@H](CC(C)C)C(=O)O)[C@@H](C)CC` gave an IC50 of 0.189 µM (Spike glycoprotein Beta variant; cell-cell fusion, inhibitor, luciferase fusion; 293T donor, Huh-7 target; 16 h, 37 °C, dual mutations).
`CS(=O)(=O)/C=C/CNC(=O)c1cc(-c2ccccc2)n[nH]1` gave an IC50 of 0.12 ± 0.005 µM (Polyprotein P1234, nsP2 protease (Chikungunya virus, UniProt Q5XXP4); FRET).
The IC50 of `Cc1ccc(NC2CNC2)cc1C(=O)N[C@H](C)c1cccc(-c2ccc(CN[C@H]3CC[C@@H](O)C3)s2)c1` (single isomer, unassigned) is reported as over 100 µM (Replicase polyprotein 1ab, papain-like protease (rep, Middle East respiratory syndrome-related coronavirus, UniProt K9N7C7); enzyme activity).
With `Cc1n[nH]c(C)c1S(=O)(=O)Nc1ccc2c[nH]nc2c1` the IC50 was 0.38 ± 0.02 µM (Inosine-5'-monophosphate dehydrogenase (Mycobacterium tuberculosis, UniProt P9WKI7, D250G/del126-249); enzyme activity).
For `C[C@@H]1NC(=O)[C@H]([C@@H](C)O)NC(=O)[C@H](CCCNC(=N)N)NC(=O)[C@H](CCCNC(=N)N)NC(=O)[C@@H]2CSSC[C@@H]3NC(=O)[C@H](CO)NC(=O)CNC(=O)[C@H]([C@@H](C)O)NC(=O)[C@H](CSSC[C@H](N)C(=O)N[C@@H](CCCCN)C(=O)N[C@@H](CCCNC(=N)N)C(=O)N[C@@H](CCCCN)C(=O)NCC(=O)N[C@@H](CO)C(=O)N[C@@H](CO)C(=O)N2)NC(=O)[C@H](CSSC[C@@H](C(N)=O)NC(=O)[C@H](CCCCN)NC(=O)CNC(=O)[C@H](CC(N)=O)NC(=O)[C@H](CCCNC(=N)N)NC3=O)NC(=O)[C@H](CC(=O)O)NC(=O)[C@H](Cc2ccc(O)cc2)NC1=O`, the IC50 was 0.107 µM (Voltage-dependent N-type calcium channel subunit alpha-1B, with α2δ, β3 subunits (Cacna1b, Rattus norvegicus, UniProt Q02294); Ba2+ current, inhibitor, whole-cell patch clamp; HEK293 expressing α2δ and β3; 22 °C, added: Ba2+ 20 mM).
`CC[C@H](C)[C@H](NC(=O)[C@H](C)NC(=O)[C@H](CCC(=O)O)NC(=O)[C@H](CCC(=O)O)NC(=O)[C@H](CC(C)C)NC(=O)[C@H](CCCCN)NC(=O)[C@H](CCCCN)NC(=O)[C@H](CCSC)NC(=O)[C@H](CCC(=O)O)NC(=O)[C@H](Cc1ccc(O)cc1)NC(=O)[C@H](CCC(=O)O)NC(=O)[C@H](CC(C)C)NC(=O)[C@H](CC(=O)O)NC(=O)[C@H](CC(C)C)NC(=O)[C@H](Cc1ccccc1)NC(=O)[C@H](Cc1ccc(O)cc1)NC(=O)[C@@H](NC(=O)[C@H](CC(N)=O)NC(=O)[C@@H](NC(=O)[C@H](CCC(N)=O)NC(=O)[C@H](CC(=O)O)NC(=O)[C@H](CC(C)C)NC(=O)[C@@H](N)CO)[C@@H](C)CC)C(C)C)C(=O)N[C@@H](CCCCN)C(=O)N[C@@H](CCCCN)C(=O)N[C@@H](CC(C)C)C(=O)N[C@@H](CCC(=O)O)C(=O)N[C@@H](CCC(=O)O)C(=O)N[C@@H](CO)C(=O)N[C@@H](Cc1ccc(O)cc1)C(=O)N[C@H](C(=O)N[C@@H](CC(=O)O)C(=O)N[C@@H](CC(C)C)C(=O)N[C@@H](CCCCN)C(=O)N[C@@H](CCC(=O)O)C(=O)N[C@@H](CC(C)C)C(=O)O)[C@@H](C)CC` has an IC50 of 0.106 µM (Spike glycoprotein Beta variant; cell-cell fusion, inhibitor, luciferase fusion; 293T donor, Huh-7 target; 16 h, 37 °C).
`NC(=O)COc1c(SSc2cnn(-c3ccccc3)c(=O)c2OCC(N)=O)cnn(-c2ccccc2)c1=O` gave an IC50 of 94 ± 23 µM (Sortase A (Bacillus anthracis str. H9401, UniProt P0DPQ5); inhibitor; Bacillus anthracis).
For `CC[C@H](C)[C@H](NC(=O)[C@H](C)NC(=O)[C@H](CCC(=O)O)NC(=O)[C@H](CCC(=O)O)NC(=O)[C@H](CC(C)C)NC(=O)[C@H](CCCCN)NC(=O)[C@H](CCCCN)NC(=O)[C@H](CCSC)NC(=O)[C@H](CCC(=O)O)NC(=O)[C@H](Cc1ccc(O)cc1)NC(=O)[C@H](CCC(=O)O)NC(=O)[C@H](CC(C)C)NC(=O)[C@H](CC(=O)O)NC(=O)[C@H](CC(C)C)NC(=O)[C@H](Cc1ccccc1)NC(=O)[C@H](Cc1ccc(O)cc1)NC(=O)[C@@H](NC(=O)[C@H](CC(N)=O)NC(=O)[C@@H](NC(=O)[C@H](CCC(N)=O)NC(=O)[C@H](CC(=O)O)NC(=O)[C@H](CC(C)C)NC(=O)[C@@H](N)CO)[C@@H](C)CC)C(C)C)C(=O)N[C@@H](CCCCN)C(=O)N[C@@H](CCCCN)C(=O)N[C@@H](CC(C)C)C(=O)N[C@@H](CCC(=O)O)C(=O)N[C@@H](CCC(=O)O)C(=O)N[C@H](C(=O)N[C@@H](Cc1ccc(O)cc1)C(=O)N[C@H](C(=O)N[C@@H](CC(=O)O)C(=O)N[C@@H](CC(C)C)C(=O)N[C@@H](CCCCN)C(=O)N[C@@H](CCC(=O)O)C(=O)N[C@@H](CC(C)C)C(=O)O)[C@@H](C)CC)[C@@H](C)O`, the IC50 was 0.239 µM (Spike glycoprotein Beta variant; cell-cell fusion, inhibitor, luciferase fusion; 293T donor, Huh-7 target; 16 h, 37 °C, dual mutations).
For `C[C@@H](O)[C@@H]1NC(=O)[C@@H]2CSSC[C@H](N)C(=O)N[C@@H](CCCCN)C(=O)N[C@@H](CCCNC(=N)N)C(=O)N[C@@H](CCCCN)C(=O)NCC(=O)N[C@@H](CO)C(=O)N[C@@H](CO)C(=O)N[C@H]3CSSC[C@H](NC(=O)[C@H](CO)NC(=O)CNC1=O)C(=O)N[C@@H](CCCNC(=N)N)C(=O)N[C@@H](CC(N)=O)C(=O)NCC(=O)N[C@@H](CCCCN)C(=O)N[C@H](C(N)=O)CSSC[C@H](NC(=O)[C@H](CC(=O)O)NC(=O)[C@H](Cc1ccc(O)cc1)NC(=O)[C@H](CO)NC(=O)[C@H]([C@@H](C)O)NC(=O)[C@H](CCCNC(=N)N)NC(=O)[C@H](CCCNC(=N)N)NC3=O)C(=O)N2`, the IC50 was under 10 µM (Voltage-dependent P/Q-type calcium channel subunit alpha-1A (Cacna1a, Rattus norvegicus, UniProt P54282); ion current, inhibitor, whole-cell patch clamp).

Excerpt of the above:
`CS(=O)(=O)/C=C/CNC(=O)c1cc(-c2ccccc2)n[nH]1` gave an IC50 of 0.12 ± 0.005 µM (Polyprotein P1234, nsP2 protease (Chikungunya virus, UniProt Q5XXP4); FRET).
The IC50 of `Cc1ccc(NC2CNC2)cc1C(=O)N[C@H](C)c1cccc(-c2ccc(CN[C@H]3CC[C@@H](O)C3)s2)c1` (single isomer, unassigned) is reported as over 100 µM (Replicase polyprotein 1ab, papain-like protease (rep, Middle East respiratory syndrome-related coronavirus, UniProt K9N7C7); enzyme activity).
